Measured values pooled from the literature.
A part holds a random share of what one study measured. Substitutions count along the parent as printed.

Block 1
Target: CCNB1, cyclin fold, Cln2 fusion (human)
Method: yeast growth competition, sequencing
Sample: yeast
Setting: weak parent motif
Baseline: not given
Reading: higher = stronger binding
Measurement: normalised enrichment score
Parent: CDC25A docking peptide (human); PPHRRRLLFACSP
HPHRRRLLFACSP [P1H]: 0.534
PPHRRRLLFKCSP [A10K]: 0.72
PNHRRRLLFACSP [P2N]: 0.221
VPHRRRLLFACSP [P1V]: -0.111
PPHRRCLLFACSP [R6C]: 0.00797
PPHRRRILFACSP [L7I]: 1.18
PPHRRRLLFTCSP [A10T]: 1.1
PPHYRRLLFACSP [R4Y]: 0.781
PPHRRRLLFACSE [P13E]: 0.128

Block 2
Target: UBE2I UBC core domain (UniProt P63279)
Method: yeast two-hybrid
Sample: yeast
Setting: mostly zero background
Baseline: not given
Reading: higher = stronger interaction
Measurement: lacZ reporter activity
B1: ANAPC11 RING domain (UniProt Q9NYG5); chain GICRMAFNGCCPDCKVPGDDCPLVWGQCSHCFHMHCILKWLHAQQVQQHCPMCRQEWKFKE
B2: RNF166 RING domain (UniProt Q96A37); chain GDSGLEAQYTCPICLEVYHRPVAIGSCGHTFCGECLQPCLQVPSPLCPLCRLPFDPKKVDK
B3: TRIM37 RING domain (UniProt O94972); chain SVESIAEVFRCFICMEKLRDARLCPHCSKLCCFSCIRRWLTEQRAQCPHCRAPLQLRELVN
B4: TRIM22 RING domain (UniProt Q8IYM9); chain VKVDIEKEVTCPICLELLTEPLSLDCGHSFCQACITAKIKESVIISRGESSCPVCQTRFQPGNLRP
B5: TRIM54 RING domain (UniProt Q9BYV2); chain SMDNLEKQLICPICLEMFSKPVVILPCQHNLCRKCANDVFQASNPLWQSRGSTTVSSGGRFRCPSCRHEVVLDRHGV
B1 (ANAPC11 RING domain): 0
B2 (RNF166 RING domain): 0
YCEMGSTFQLCKICAENDKDVKIEPCGHLMCTSCLTAWQESDGQGCPFCRCEIKGTEPII (CBLB RING domain (UniProt Q13191)): 0
B3 (TRIM37 RING domain): 0
B4 (TRIM22 RING domain): 0
B5 (TRIM54 RING domain): 0

Block 3
Target: RNA binding protein fox-1 homolog 2, RRM domain, GST-SBP tag (RBFOX2, Homo sapiens, UniProt O43251-10, residues 100-194)
Method: RNA Bind-n-Seq
Molecule type: RNA
Sample: in vitro
Concentration: 365 nM
Setting: natural RNA segment, single round, ends assumed
Baseline: no-protein control
Reading: higher = stronger binding
Measurement: RBNS enrichment (R)
Residues (chain): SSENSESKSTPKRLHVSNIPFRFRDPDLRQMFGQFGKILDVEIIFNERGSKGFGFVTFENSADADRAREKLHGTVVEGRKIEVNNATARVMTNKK
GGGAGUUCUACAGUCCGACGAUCUAAAACCAAUUUCUACACUAAAGUUGUCAAAUGUUAGAAGAAUCCUGUGUUCAGUUAUGAGACUCUUUGCAUAGUAUAGGGACUUGAAAGUUUUAUGAGACGGGUGUAAUUGGAAUUCUCGGGUGCCAA: 0.591
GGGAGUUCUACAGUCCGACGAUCGUUUACAGUGUCUGUUGGUGGCCAAGACCUUCUCUCUCCACCCCUCCUCCAUCCACCCUGAGGACCCUGGGGCUCAGUGGAGGCAGGGCCCUGCCCCCCUCCCUUCCGCUUGGAAUUCUCGGGUGCCAA: 0.344
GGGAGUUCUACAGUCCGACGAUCAGGUCACAUUUUUCCCCCGUGGGGAAAUAAACUGACUUUGGACUGCUUCAGUCUCUGCCAUCUUCCAUGACUGCAUUUGUUCCUGCCUGCCUCGGCGGUAUCCACAGAAGUGGAAUUCUCGGGUGCCAA: 0.807
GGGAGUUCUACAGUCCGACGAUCAGCAUAGAUUUGCAGUUACGGCCUGGAUGCCAGUCGCCAGCCCAGCUGUUCCCCUCGGGAACAUGAGGUGGUGGUGGCGCAGCAGACUGCGAUCAAUUCUGCAUGGUCACUGGAAUUCUCGGGUGCCAA: 0.238
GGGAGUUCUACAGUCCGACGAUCCCUGGCAAGUGGCCACGCCCUGUGUCAGACCAUCUGGGAAUUAAGCUCCAGACAGACUUACAGAUGCCUUCCUUAGGAGUUCUUGCUUCUUGCGUUGAUACUUUGCCCCAUGGAAUUCUCGGGUGCCAA: 0.381
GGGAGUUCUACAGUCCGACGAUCGACUCCCUGCUUGCCGCACACACCUCGGACAGUGAGCAACCCAGGCUCUGCCGUGUUCAGACGUCGGCUACUCCGUGGCUCCACCUGACCUCCGAAUGCUAUUUGCUCCCUGGAAUUCUCGGGUGCCAA: 1.29
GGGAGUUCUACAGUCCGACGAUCCAUGACACCCGACUUCGCCCUCAGCUUUCCACCCCGACCCUCCCACUACAUCUCAAGUGUUACAGACUCCCCUCCCGCUCUUUCUUGGGGAAGAGGGGGUGGGUAAGCGCUGGAAUUCUCGGGUGCCAA: 0.489
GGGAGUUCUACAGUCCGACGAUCUGUGUAGUGUCCGCUAAGGUUGCAGUUGGUCCCCUGCCCUGACUUCAUGCCCCAAGCCUCAGCUAUUGGAAUGGCUUCCAUUCAGUAGCUUCUGUGUUGGUCCUUUGUAGUGGAAUUCUCGGGUGCCAA: 0.405

Block 4
Target: ABI1, truncated, D143A, DHFR fusion (Arabidopsis thaliana)
Method: DHFR PCA, deep sequencing
Sample: yeast
Setting: methotrexate growth selection, single substitutions
Added: (+)-ABA 0.11 µM
Baseline: wild-type fitted maximum
Reading: higher = stronger binding
Measurement: relative binding score
Parent: PYL1, truncated, DHFR fusion (Arabidopsis thaliana); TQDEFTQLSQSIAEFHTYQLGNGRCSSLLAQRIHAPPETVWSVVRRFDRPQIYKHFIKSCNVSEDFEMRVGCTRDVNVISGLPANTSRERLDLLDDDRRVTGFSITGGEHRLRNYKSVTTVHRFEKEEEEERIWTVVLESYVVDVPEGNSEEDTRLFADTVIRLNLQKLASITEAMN; partner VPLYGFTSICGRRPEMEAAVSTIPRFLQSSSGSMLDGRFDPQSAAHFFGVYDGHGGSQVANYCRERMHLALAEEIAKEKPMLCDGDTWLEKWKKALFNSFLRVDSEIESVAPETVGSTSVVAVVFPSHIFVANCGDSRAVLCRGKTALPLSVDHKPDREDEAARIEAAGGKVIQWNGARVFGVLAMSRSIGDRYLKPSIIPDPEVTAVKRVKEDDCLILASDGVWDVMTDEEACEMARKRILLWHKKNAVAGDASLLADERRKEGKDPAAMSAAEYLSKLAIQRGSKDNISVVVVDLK
L166Y: 6.26%
S104G: -0.0375%
E127Q: 46.5%
T39W: -3.59%
E127S: 39.2%
T6A: 52.3%
I162A: 3.84%
I133S: 39.2%
N77F: 23.4%
T154H: -3.07%
E128N: 45.1%
I52T: 32.7%

Block 5
Target: Interferon regulatory factor 5, full length, phosphomimetic (IRF5, Homo sapiens, UniProt Q13568-2, residues 1-514, K96S/S451D/S453D/S456D/S462D)
Method: protein-binding microarray
Molecule type: double-stranded DNA, one strand shown
Sample: in vitro
Concentration: 250 nM
Setting: 60-bp whole probe
Added: salmon DNA 0.4 mg/ml
Baseline: random background probes
Reading: higher = stronger binding
Measurement: log fluorescence
Shared flanks, not repeated: GCCTAGCAC … GTCTTGATTCGCTTGACGCTGCTG
GGGCAGGAAACGGAGGACACGTGCTAG: -0.744 z-score
GACGGACTGGCGTATCGGGACGTGCTA: -0.0479 z-score
GACGGTTTCCTTTCCTTGACGTGCTAG: 1.08 z-score
TTAGGACTGCTTTTCCTCTAGTGCTAG: 0.0581 z-score
TCCCAAGTCTTGTTTTACAATGTGCTA: -0.0688 z-score
GACGAACTGAGAATGGAGACGTGCTAG: -0.333 z-score
GTCGAACTGGGGTTTCGAGACGTGCTA: 1.15 z-score
TTAGGTTCCTGTTTCGGTTAGTGCTAG: 8.77 z-score
GACGTTTTCGGGACTGGAGACGTGCTA: 2.99 z-score
GACGGTCTCGGTATCGCGACGTGCTAG: 0.00403 z-score
TTAAGTTTCCTACTGCTTTAGTGCTAG: 1.11 z-score
GACGGTGTCCTTTCCCTGACGTGCTAG: -0.118 z-score
TTAGATCTCAGTTTCGATCAGTGCTAG: 9.38 z-score
TCATGCTTGTGTTTATTACTGTGCTAG: 0.251 z-score
TCGTGGATTGCGACCCCTAGGTGCTAG: -0.284 z-score
TTAGATATCGGGACTGGATCAGTGCTA: 1.03 z-score
TTAGGCCTCGGACTGGGTTAGTGCTAG: -0.538 z-score
CTTTTATTAGTGACTCAGCACGTGCTA: 0.65 z-score
TCAGTTTTCAGCTGTTTTACTGTGCTA: 1.63 z-score

Some of these lines once more (block 3):
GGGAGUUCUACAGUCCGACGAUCAGCAUAGAUUUGCAGUUACGGCCUGGAUGCCAGUCGCCAGCCCAGCUGUUCCCCUCGGGAACAUGAGGUGGUGGUGGCGCAGCAGACUGCGAUCAAUUCUGCAUGGUCACUGGAAUUCUCGGGUGCCAA: 0.238
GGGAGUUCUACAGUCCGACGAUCAGGUCACAUUUUUCCCCCGUGGGGAAAUAAACUGACUUUGGACUGCUUCAGUCUCUGCCAUCUUCCAUGACUGCAUUUGUUCCUGCCUGCCUCGGCGGUAUCCACAGAAGUGGAAUUCUCGGGUGCCAA: 0.807
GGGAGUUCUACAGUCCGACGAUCCAUGACACCCGACUUCGCCCUCAGCUUUCCACCCCGACCCUCCCACUACAUCUCAAGUGUUACAGACUCCCCUCCCGCUCUUUCUUGGGGAAGAGGGGGUGGGUAAGCGCUGGAAUUCUCGGGUGCCAA: 0.489
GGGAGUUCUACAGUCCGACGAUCUAAAACCAAUUUCUACACUAAAGUUGUCAAAUGUUAGAAGAAUCCUGUGUUCAGUUAUGAGACUCUUUGCAUAGUAUAGGGACUUGAAAGUUUUAUGAGACGGGUGUAAUUGGAAUUCUCGGGUGCCAA: 0.591
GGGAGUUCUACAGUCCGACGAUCGUUUACAGUGUCUGUUGGUGGCCAAGACCUUCUCUCUCCACCCCUCCUCCAUCCACCCUGAGGACCCUGGGGCUCAGUGGAGGCAGGGCCCUGCCCCCCUCCCUUCCGCUUGGAAUUCUCGGGUGCCAA: 0.344
